{"data": "Measured values of several laboratories", "IDE": "Insulin-degrading enzyme (IDE, Homo sapiens, UniProt P14735)", "note": "Each line is one published result; not all experiments were run side by side. Numbers after ± are the reported error."}
{"SMILES": "CC(=O)Nc1cccc(-n2c(=O)n(C3CC3)c(=O)c3c(Nc4ccc(I)cc4F)n(C)c(=O)c(C)c32)c1", "tested on": "LoVo (KRAS G13D)", "assay": "cell viability, resazurin", "setting": "50.00 nM, 72 h", "how to read": "relative to: DMSO", "quantity": "average fractional effect", "result": "65%"}
{"SMILES": "CSc1nc(-c2ccnc(NC(C)c3ccccc3)c2)c(-c2ccc(F)cc2)[nH]1 (stereo not drawn)", "tested on": "HeLa expressing Ub(G76V)-GFP", "assay": "Ub(G76V)-GFP degradation, cycloheximide chase", "setting": "12 µM", "quantity": "inhibition", "result": "46%"}
{"SMILES": "Cc1cccc(-c2[nH]c(CNc3ccccc3F)nc2-c2ccc3ncnn3c2)n1", "tested on": "bone marrow CD138+ myeloma cells", "assay": "XTT", "setting": "2 µM, phenol red-free RPMI", "quantity": "viability", "result": "7%"}
{"SMILES": "O=C(O)CC[C@H](NC(=O)N[C@@H](CCCCNC(=O)CCCCCCC(=O)NCCCC[C@@H](NC(=O)[C@H](CCC(=O)O)NC(=O)[C@H](CCC(=O)O)NC(=O)CCC(=O)NCCCN1CC[S][Tc]2(=[O])[S]CC[N]2CC1)C(=O)O)C(=O)O)C(=O)O (stereo partly drawn) [technetium-99m labelled]", "tested on": "LNCaP", "setting": "25 nM, 1 h, 4 °C", "quantity": "surface-bound activity", "result": "2.5 ± 0.38 %AD/mg protein"}
{"SMILES": "CCCCCCCc1ccc(-c2c(C)[nH]c(C)c(Cl)c2=O)cn1", "tested on": "Plasmodium yoelii", "system": "17XL", "setting": "384-well", "quantity": "IC50", "result": "315 ± 149 nM"}
{"SMILES": "CO[C@H]1[C@H](O[C@H]([C@H]2O[C@@H](n3ccc(=O)[nH]c3=O)[C@H](O)[C@@H]2O)[C@H](NCCCNC(=O)[C@@H](NC(=O)[C@@H](NC(=O)N[C@H](C(=O)O)C(C)C)[C@@H]2CCN=C(N)N2)[C@@H](OC(=O)CCCCCCCCCCCCN(O)C(=N)N)C(C)C)C(=O)O)O[C@H](CN)[C@H]1O", "tested on": "MDA-MB-231", "system": "mitochondrial membrane", "setting": "0.25 µM", "quantity": "cardiolipin level", "result": "decreased"}
{"SMILES": "Nc1ncnc2c1ncn2[C@@H]1C=C(CO)[C@@H](O)[C@H]1O", "tested on": "HBL-1", "setting": "1 µM, 120 h", "quantity": "viability", "result": "51.3%"}
{"SMILES": "CC(C)C[C@@H](C=O)NC(=O)[C@H](CC(C)C)NC(=O)[C@H](CC(C)C)NC(=O)OCc1ccccc1", "tested on": "HeLa expressing Ub(G76V)-GFP", "assay": "Ub(G76V)-GFP degradation, cycloheximide chase", "setting": "0.625 µM", "how to read": "relative to: DMSO", "quantity": "remaining activity", "result": "26.4%"}
{"SMILES": "Clc1ccc(N/N=C(\\c2ccccc2)c2ccccn2)nc1", "tested on": "CD326+ cells", "assay": "annexin V flow cytometry", "setting": "0.25 µM, 72 h", "quantity": "apoptotic cells", "result": "~90%"}
{"SMILES": "CCOc1cc2ncc(C#N)c(Nc3ccc(F)c(Cl)c3)c2cc1NC(=O)/C=C/CN(C)C", "tested on": "BT-12", "assay": "cell viability, MTT", "setting": "10 µM, 72 h", "quantity": "inhibition", "result": "93.2%"}
{"SMILES": "CC(C)NCC(O)c1ccc(O)c(O)c1 (stereo not drawn)", "tested on": "mouse ventricular cardiomyocytes", "setting": "dose not given, 0.259 s", "quantity": "sarcomere length", "result": "1.8 µm"}
{"SMILES": "CCOC(=O)CCNc1cc(N2CCc3ccccc3CC2)nc(-c2cccnc2)n1", "tested on": "HBL-1", "setting": "1 µM, 120 h", "quantity": "viability", "result": "100%"}
{"SMILES": "CCn1cc(-c2cc(Cn3ccnc3)cc3c2CCN([C@H](c2cc(OC)ccn2)C2CC2)C3=O)c(C(F)(F)F)n1", "tested on": "RS4", "assay": "cell growth, inhibitor", "setting": "120 h", "quantity": "EC50", "result": "25 nM"}
{"SMILES": "Cc1cc(C)cc(-c2ccc([C@@H]3[C@@H](CO)N4CCCCN(S(=O)(=O)c5ccccc5C)C[C@@H]34)cc2)c1", "tested on": "IDE", "assay": "enzyme activity, inhibitor, fluorescence kinetic", "setting": "together with: Mca-RPPGFSAFK(Dnp)-OH substrate", "quantity": "EC50", "result": "61 nM"}
{"SMILES": "CCCCCOc1ccc(/C=C\\c2cccc(O)c2C(=O)O)cc1", "tested on": "HBL-1", "setting": "1 µM, 120 h", "quantity": "viability", "result": "100%"}
{"SMILES": "CC(C)C[C@H](NC(=O)[C@H](Cc1ccccc1)NC(=O)c1cnccn1)B(O)O", "tested on": "BT-12", "assay": "cell viability, MTT", "setting": "10 µM, 72 h", "quantity": "inhibition", "result": "96.3%"}
{"SMILES": "c1ccc(-c2cnc(Nc3ccc(OCCN4CCCC4)cc3)s2)cc1", "tested on": "HeLa expressing Ub(G76V)-GFP", "assay": "Ub(G76V)-GFP degradation, inhibitor, cycloheximide chase", "setting": "12 µM", "quantity": "inhibition", "result": "13%"}
{"SMILES": "COc1c(C)[nH]c(C)c(-c2ccc(Oc3cccc(C(F)(F)F)c3)cc2)c1=O", "tested on": "Plasmodium yoelii", "system": "17XL", "setting": "384-well", "quantity": "IC50", "result": "595 ± 163 nM"}
{"SMILES": "CCCOc1ccn2c(C(C)=O)cc(-c3ccccc3S(C)(=O)=O)c2c1", "tested on": "HBL-1", "setting": "0.1 µM, 120 h", "quantity": "viability", "result": "110%"}
{"SMILES": "COc1ccc(NC(=O)N2CCCCN3[C@H](CO)[C@H](c4ccc(-c5ccccc5C)cc4)[C@@H]3C2)cc1", "tested on": "IDE", "assay": "enzyme activity, inhibitor, fluorogenic kinetic", "setting": "together with: Mca-RPPGFSAFK(Dnp)-OH substrate", "quantity": "EC50", "result": "3400 nM"}
{"SMILES": "Nc1nc(=S)c2[nH]cnc2[nH]1", "tested on": "HBL-1", "setting": "0.1 µM, 120 h", "quantity": "viability", "result": "123%"}
{"SMILES": "Cc1c(C)c2c(c(C)c1O)CCC(C)(COc1ccc(CC3SC(=O)NC3=O)cc1)O2 (stereo not drawn)", "tested on": "HepG2", "assay": "high content imaging, measured: nuclear size", "setting": "24 h, expected PoD over plates", "quantity": "point of departure", "result": "39.8 µM"}
{"SMILES": "O=C(N[C@@H](CSCc1ccc([N+](=O)[O-])cc1)C(=O)NO)c1ccccc1", "tested on": "NCI-H1573", "assay": "cell viability, MTT", "setting": "ferroptosis rescue, together with: liproxstatin-1", "how to read": "relative to: with over without liproxstatin-1", "quantity": "fold shift in potency", "result": "36 fold"}
{"SMILES": "O=C(O)c1ccc(O)c2ncccc12", "tested on": "HBL-1", "setting": "0.1 µM, 120 h", "quantity": "viability", "result": "124%"}
{"SMILES": "Cc1ccc(NC(=O)c2ccc(CN3CCN(C)CC3)cc2)cc1Nc1nc(-c2cccnc2)cs1", "tested on": "hiPSC cardiomyocytes", "assay": "CellTiter-Glo", "setting": "concentration not given, 24 h", "how to read": "relative to: vehicle", "quantity": "ATP level", "result": "101%"}
{"SMILES": "O=C(O)CCCc1ccccc1", "tested on": "HBL-1", "setting": "0.5 µM, 120 h", "quantity": "viability", "result": "122%"}
{"SMILES": "Cn1cc(-c2ccc(-c3cncc(Cl)c3N3CCC4(CCNC4=O)CC3)cc2)cn1", "tested on": "COLO 205", "assay": "gene expression, microarray, measured: EMP1 mRNA", "setting": "concentration not given, 2 h", "how to read": "relative to: untreated cells", "quantity": "log2 fold change", "result": 3.82}
{"note": "For quick reference, copied from above:"}
{"SMILES": "Clc1ccc(N/N=C(\\c2ccccc2)c2ccccn2)nc1", "tested on": "CD326+ cells", "assay": "annexin V flow cytometry", "setting": "0.25 µM, 72 h", "quantity": "apoptotic cells", "result": "~90%"}
{"SMILES": "Cn1cc(-c2ccc(-c3cncc(Cl)c3N3CCC4(CCNC4=O)CC3)cc2)cn1", "tested on": "COLO 205", "assay": "gene expression, microarray, measured: EMP1 mRNA", "setting": "concentration not given, 2 h", "how to read": "relative to: untreated cells", "quantity": "log2 fold change", "result": 3.82}
{"SMILES": "Nc1nc(=S)c2[nH]cnc2[nH]1", "tested on": "HBL-1", "setting": "0.1 µM, 120 h", "quantity": "viability", "result": "123%"}
{"SMILES": "Cc1cc(C)cc(-c2ccc([C@@H]3[C@@H](CO)N4CCCCN(S(=O)(=O)c5ccccc5C)C[C@@H]34)cc2)c1", "tested on": "IDE", "assay": "enzyme activity, inhibitor, fluorescence kinetic", "setting": "together with: Mca-RPPGFSAFK(Dnp)-OH substrate", "quantity": "EC50", "result": "61 nM"}
{"SMILES": "COc1ccc(NC(=O)N2CCCCN3[C@H](CO)[C@H](c4ccc(-c5ccccc5C)cc4)[C@@H]3C2)cc1", "tested on": "IDE", "assay": "enzyme activity, inhibitor, fluorogenic kinetic", "setting": "together with: Mca-RPPGFSAFK(Dnp)-OH substrate", "quantity": "EC50", "result": "3400 nM"}
